Experimental data gathered from unrelated publications.
Numbered parts are unrelated; each lists some results of a single study.
UniProt Q9C0B0, sequence (30-357, looked up): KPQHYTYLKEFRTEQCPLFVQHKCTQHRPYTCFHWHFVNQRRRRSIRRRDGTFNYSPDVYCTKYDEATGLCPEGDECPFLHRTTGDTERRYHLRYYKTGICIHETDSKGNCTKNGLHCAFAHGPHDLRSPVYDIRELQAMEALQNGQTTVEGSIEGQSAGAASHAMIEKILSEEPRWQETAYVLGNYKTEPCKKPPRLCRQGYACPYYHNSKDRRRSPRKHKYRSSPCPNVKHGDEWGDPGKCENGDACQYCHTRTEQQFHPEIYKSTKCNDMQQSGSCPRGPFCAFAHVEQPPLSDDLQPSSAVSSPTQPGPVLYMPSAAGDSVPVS

Series 1
Target: RNA binding protein fox-1 homolog 2, RRM domain, GST-SBP tag (RBFOX2, Homo sapiens, UniProt O43251-10, residues 100-194)
Technique: RNA Bind-n-Seq
Form: RNA
Matrix: in vitro
Concentration: 365 nM
Setting: natural RNA segment, single round, ends assumed
Baseline: no-protein control
Direction: higher = stronger binding
Constant ends, left off below: GGGAGUUCUACAGUCCGACGAUC … UGGAAUUCUCGGGUGCCAA
Residues (chain): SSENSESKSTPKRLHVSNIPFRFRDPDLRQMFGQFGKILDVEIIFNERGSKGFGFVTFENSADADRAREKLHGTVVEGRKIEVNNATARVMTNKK
Strand	RBNS enrichment (R)
GGAAGAGUGGCCAACCCCAGCAGGUCCUAAGGUGGAGGUCUAGGUGUCUGAAGUGCCUUGGGGGCACCCUCAUUUUGUUUCCAUUCCAACAACGAGAACAGAGAUGUUCU	0.572
AGAAAGUCUCUUCUUCAUCACUGAAUUCAGUCACUUGGAGAUGACAACUUCAAAUGCUAACCCGAUGACCCCAGAAAACCGUGUGAGAUUCGUACCGAAGAACCUUGUGG	0.274
CCAGUAGGGUCUGGACCCCAGCUCUUGCCUGACCUGGAAGUUGGCUGCCCAGGAGUAGAAGCCUGUUAGCUGCCUCCAUGGGUUUUAUACAGCUCUUCUUGCUUAGUGCG	0.415
UCUGGGCCUGCCACCACGCCCCUGGCUAGUGCACCAAGACCUGCUGCUCCUGCCAGCAACCCACCACCACCGGCUCUCAUGUCUACAACUCAGAGCCGCCCACCCUGGAU	0.433
CUGGAAACGAUGAGAUUCCACAGACCCCCUAUGGGGGACCCACAACCCAAGACCGCAGACUGGGUGUAAGGGAUGCCCGGAACACCCUGACCAGGCCCCUCCCCUAAGAC	0.443
UCCUGGUCAUUUAGUUCAGAACAGGUGUCCUUUCUCUGUGACCAAACUUACUUUCUCUAAAAUUCCUGCAGCAGACACCAGAGGCACCCCAGACCUAGACCUCCCUUCUA	1.05
UCCUCUAUCCGUAAGUGUCCUUCCAUGCAAGGUCCCACUCUAGGUGAUAGACAGGGACCCCUUCUACUGAACCUUUGAGGAAAGGAGGAAGGAAGAAAUGCGUUUAGAUC	0.282
UGAGGGUGUGGCCAGUUCCCUGGUUCUGUGCCAUGCUGCUGCUUGGUGGCAUUGGUUAGGAAUGGGACACACGCCCCUUGUUGUGAAGUUUACAUGUGACCUUCUUAUAG	0.19
AAAGGAAGGUACAGAUGUUUACAGUGGUGCCCCAGGUGACUCGUUCUCACCACAACAAAAGCAACUAAUUGGAAACUAGAUGUGUUCAAUAAUAGAUUUCCUCUUUUUUG	0.461
GGAUUGCAGGCUCACAAUCCAUGCAGAGAACUCUGAAGCCAGCAAAUUGUACCACCAUCCCCCGCUGCUCACCAAACAUGGGCGUACUGGAAGGCUGUUAUACUCAGUGC	0.179
CACUAUUACCCAACCAUGAAGCCACCCAAGUAGUGGAGCCAGGACAUAAGUUAUUGUUCACAUUAAAGAAUCAUGUUCCCUGUGUACAUUUUAAGCAAAGGAAAAGUCUU	0.324
UCCCAGUUUUGCCACUCUCUGGAGCCAGAUCCUGGGAGCUGUCAGCAAGGAGCAGGUAAGUGAGCAGUUAUGGACAGCACUUUCCAUGUGGUGCUUCCGACCCUGGCUGU	5.24

Series 2
Target: Centromere-binding protein 1, full length, N-terminal tag (CBF1, Saccharomyces cerevisiae, UniProt P17106, residues 1-351)
UniProt P17106, sequence (whole entry, looked up): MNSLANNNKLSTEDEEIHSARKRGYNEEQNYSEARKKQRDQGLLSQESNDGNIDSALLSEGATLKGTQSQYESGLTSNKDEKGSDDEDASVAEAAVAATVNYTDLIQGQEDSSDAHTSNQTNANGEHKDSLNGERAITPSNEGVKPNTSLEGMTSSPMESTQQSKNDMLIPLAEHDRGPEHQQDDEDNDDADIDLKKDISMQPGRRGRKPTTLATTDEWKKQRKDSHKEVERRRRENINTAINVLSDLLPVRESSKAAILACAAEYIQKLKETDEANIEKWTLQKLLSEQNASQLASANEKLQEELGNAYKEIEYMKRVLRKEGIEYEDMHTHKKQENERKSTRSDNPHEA
Technique: protein-binding microarray
Form: double-stranded DNA, one strand shown
Matrix: in vitro
Concentration: 0.8 µM
Setting: whole 60-bp probe, no competitor
Direction: higher = stronger binding
Constant ends, left off below: … GTCTTGATTCGCTTGACGCTGCTG
Strand	fluorescence intensity [a.u.]
GAAATCTAAACTACTCACATGAAAAGATTACTATAG	625
GAATTCGATTATTTTGATGTGACTTGAAGGCTTTAG	561
CTAGCAAGGCGCGGGCGGGTGACAAGAAGATTTTTC	480
CTAGATAATAATTGTGACCCCATCATGGAAATGTTC	552
CTATATATTATCGCGCAGGTGAGAGAGTCCTGGTTC	589
GAAAAAGGCATTCACGTTGTAGAAGAGTCAAAGTAG	697
CCTAACTACTATAACCTCGTGTTATAGCTTCGTACA	588
CTACAAATGTTAGATAACGTGGATCTCCGACACTTC	581
CTAACAATTTCGTCCGACGTGATCTGGAAAATATTC	1020
GAATTTTAGTTAGGACACGTTTCACAGGAGCATTAG	678
CTATGTTGGAGATATCTCCTGTATGGGTAATATTTC	517
GAAGAAAAGAGCTACGAGCACGTGCAAATATATTAG	16600
GAATTTGAACCTTTTCTCGTGCCAAATAAATTCTAG	765
GAAAGTATTTGGAGGCACGTCCCGGACTAAAGATAG	539
CTAATGGAAAAATCACCTGGCACGTCATTTCATTTC	676
GAAGTGTGTGGGTGTGGTGTGGTGTGGGTGTGGTAG	537
CTACACAGGCGGGGTAACATCAAAAGGATTTATTTC	531
CCTAACTACTATAGTGGTGTCGTATAGCTTCGTACA	518
GAAACTTGTACCCTTCATCACCTTTGGAATCACTAG	531
GAATTCCGCGGACAACACGCAATTAGAGAGACATAG	532
GAATCGCCCATTCATCTGACAGGACAGAATGCCTAG	483
CTAAAAAAGAAACGTGATGTGAAAATGTGTTCATTC	2970
GAATATATCACTATCCACGTGATATTAAATCGTTAG	10100
CTACCCCAGTTACACGTGGGGACAATGGCGCTCTTC	1830
GAAATAGTGGGTCGGCATGTGTTTGCTATTAGATAG	650

Series 3
Target: Histone acetyltransferase KAT6A, both winged helices, GST fusion (KAT6A, Homo sapiens, UniProt Q92794, residues 1-181)
Technique: protein binding microarray
Form: double-stranded DNA, one strand shown
Matrix: in vitro
Concentration: not given
Setting: 8-mer, flanks averaged, mean of 2 arrays, mostly near background
Baseline: not given
Direction: higher = stronger binding
Target sequence (chain): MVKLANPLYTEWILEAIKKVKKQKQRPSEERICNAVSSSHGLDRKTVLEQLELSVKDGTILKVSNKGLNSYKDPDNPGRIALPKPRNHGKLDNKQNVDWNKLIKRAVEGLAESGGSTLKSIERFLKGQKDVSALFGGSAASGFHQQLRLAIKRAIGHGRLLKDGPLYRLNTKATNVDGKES
Strand	E-score
CACCGCGA	0.255
GATTTCGC	0.128
AGGAGCCG	0.00775
GTCCGGAC	0.268
CCTAGAAA	-0.0708
GAAGCCAC	-0.0825
AACAGCAG	-0.105
CCCCCCGA	0.0683
ACCCTTCC	-0.058
TCCACGAA	0.055
GCTAATCC	0.066
ACCTTGGA	-0.155
GGTGAAAC	0.0732
GCTGGCCA	-0.0828
CTTTTGGA	-0.136
GACATAGC	0.0431
ATAACGCG	0.285
CGAAACTC	-0.0592
ACGAAGCC	-0.0224
CTACCCTA	-0.13
AATACATT	-0.0734
AAATAAAG	-0.11
CTGGGGGA	-0.186
ACGGCGAT	0.328

Series 4
Target: Prothrombin, mature alpha-thrombin (F2, Homo sapiens, UniProt P00734)
Technique: aptamer microarray, sandwich
Form: DNA with 2'F-ANA
Matrix: in vitro
Concentration: 200 nM
Setting: whole 15-mer aptamer, many near background
Added: Cy3 exosite-II aptamer, 400 nM
Direction: higher = stronger binding
Strand: GGTTGGTGTGGTTGG
Modification	mean fluorescence intensity [a.u.]
2'F-ANA at 2 4 7 8 10 11 12 13 15	142
2'F-ANA at 2 5 8 12	154
2'F-ANA at 1 4 7 9 10 12 13 14	45.9
2'F-ANA at 2 3 7 8 12 13 15	1090
2'F-ANA at 2 6 7 9 10 14 15	129
2'F-ANA at 1 2 3 4 5 6 7 8 13 14 15	52
2'F-ANA at 1 5 7 11 12 13 15	69.5
2'F-ANA at 2 3 4 5 6 7 11 13 15	92.4
2'F-ANA at 1 2 3 4 7 8 11 13	178
2'F-ANA at 1 9 13 14	53.6
2'F-ANA at 1 3 5 7 8 12 13 15	112
2'F-ANA at 1 3 4 5 7 10 15	44.6
2'F-ANA at 1 3 8 10 11 15	83.5
2'F-ANA at 4 7 10 14	63.9
2'F-ANA at 2 5 9 10	45.8
2'F-ANA at 2 3 4 5 6 9 10 11 12 15	60.6
2'F-ANA at 1 2 3 8 9 10 13 14 15	57.8
2'F-ANA at 1 3 5 9 10 12 15	50.7
2'F-ANA at 1 2 4 5 6 7 8 9 12 13	76.7
2'F-ANA at 3 7 9 10 12 13 14	497
2'F-ANA at 3 6 7 12 14	700
2'F-ANA at 2 3 8 9 13	720

Series 5
Target: POU, POU domain (Salpingoeca helianthica)
Technique: Spec-seq
Form: double-stranded DNA, one strand shown
Matrix: in vitro
Concentration: not given
Setting: whole probe, mean of replicates
Baseline: not given
Direction: lower = stronger binding
Constant ends, left off below: GAGTCGTCTCGTCAGCAC … CCGTAGAGCACTCAGGTC
Residues (chain): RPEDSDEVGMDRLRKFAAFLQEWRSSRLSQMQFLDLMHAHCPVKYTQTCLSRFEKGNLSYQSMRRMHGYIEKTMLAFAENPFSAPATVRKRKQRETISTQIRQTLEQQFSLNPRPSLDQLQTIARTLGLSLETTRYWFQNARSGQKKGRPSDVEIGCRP
Strand	relative binding energy
ATGCCGCG	1.65 ln ratio
ATCTACAT	1.03 ln ratio
ATTACGAT	0.66 ln ratio
TGCTTAAT	0.42 ln ratio
GTTATAAT	-0.698 ln ratio
GTCCTAAT	0.833 ln ratio
ATCTTAAT	0.506 ln ratio
AGTCTAAT	0.793 ln ratio
ATGCTAGT	1.19 ln ratio
ATGCTCCT	1.26 ln ratio
ACTCTAAT	0.718 ln ratio
ATGTCAAT	1.24 ln ratio
CCCATAAT	0.763 ln ratio

Single results of other studies
Strand	target	test	test system	setting	scale	quantity	result
GGGAGUUCUACAGUCCGACGAUCGAAAAUGGCUUCUGCUCCAUUAAAAAGUAAAAAUUGUCCUCCAAAUAUAAAACUCCUUAACCGAUAUUUUUGAAAUUAAAAUCUUUAAAUUUUAUAAAUCAGCUGUUGCCACUACACAACCAACAGAGGAUUGAGCAUCA	RING finger protein unkempt homolog, zinc fingers 1-6, SBP tag (UNK, Homo sapiens, UniProt Q9C0B0, residues 30-357)	RNA Bind-n-Seq	RNA, in vitro	100 nM, RNA with constant flanks, ends assumed	baseline: input RNA pool, higher = stronger binding	bound/input enrichment	0.694 ratio

Some of these lines once more (series 1):
Strand	RBNS enrichment (R)
GGAAGAGUGGCCAACCCCAGCAGGUCCUAAGGUGGAGGUCUAGGUGUCUGAAGUGCCUUGGGGGCACCCUCAUUUUGUUUCCAUUCCAACAACGAGAACAGAGAUGUUCU	0.572
AGAAAGUCUCUUCUUCAUCACUGAAUUCAGUCACUUGGAGAUGACAACUUCAAAUGCUAACCCGAUGACCCCAGAAAACCGUGUGAGAUUCGUACCGAAGAACCUUGUGG	0.274
CCAGUAGGGUCUGGACCCCAGCUCUUGCCUGACCUGGAAGUUGGCUGCCCAGGAGUAGAAGCCUGUUAGCUGCCUCCAUGGGUUUUAUACAGCUCUUCUUGCUUAGUGCG	0.415
UCUGGGCCUGCCACCACGCCCCUGGCUAGUGCACCAAGACCUGCUGCUCCUGCCAGCAACCCACCACCACCGGCUCUCAUGUCUACAACUCAGAGCCGCCCACCCUGGAU	0.433
CUGGAAACGAUGAGAUUCCACAGACCCCCUAUGGGGGACCCACAACCCAAGACCGCAGACUGGGUGUAAGGGAUGCCCGGAACACCCUGACCAGGCCCCUCCCCUAAGAC	0.443
UCCUGGUCAUUUAGUUCAGAACAGGUGUCCUUUCUCUGUGACCAAACUUACUUUCUCUAAAAUUCCUGCAGCAGACACCAGAGGCACCCCAGACCUAGACCUCCCUUCUA	1.05
UCCUCUAUCCGUAAGUGUCCUUCCAUGCAAGGUCCCACUCUAGGUGAUAGACAGGGACCCCUUCUACUGAACCUUUGAGGAAAGGAGGAAGGAAGAAAUGCGUUUAGAUC	0.282
UGAGGGUGUGGCCAGUUCCCUGGUUCUGUGCCAUGCUGCUGCUUGGUGGCAUUGGUUAGGAAUGGGACACACGCCCCUUGUUGUGAAGUUUACAUGUGACCUUCUUAUAG	0.19
AAAGGAAGGUACAGAUGUUUACAGUGGUGCCCCAGGUGACUCGUUCUCACCACAACAAAAGCAACUAAUUGGAAACUAGAUGUGUUCAAUAAUAGAUUUCCUCUUUUUUG	0.461
GGAUUGCAGGCUCACAAUCCAUGCAGAGAACUCUGAAGCCAGCAAAUUGUACCACCAUCCCCCGCUGCUCACCAAACAUGGGCGUACUGGAAGGCUGUUAUACUCAGUGC	0.179
CACUAUUACCCAACCAUGAAGCCACCCAAGUAGUGGAGCCAGGACAUAAGUUAUUGUUCACAUUAAAGAAUCAUGUUCCCUGUGUACAUUUUAAGCAAAGGAAAAGUCUU	0.324
UCCCAGUUUUGCCACUCUCUGGAGCCAGAUCCUGGGAGCUGUCAGCAAGGAGCAGGUAAGUGAGCAGUUAUGGACAGCACUUUCCAUGUGGUGCUUCCGACCCUGGCUGU	5.24
